# Results pooled from the literature.
# A part holds a random share of what one study measured. Values joined by “and” are separate records of one study, mostly repeats; a detail may differ.
# Sequence of UniProt P49146 (whole entry, looked up): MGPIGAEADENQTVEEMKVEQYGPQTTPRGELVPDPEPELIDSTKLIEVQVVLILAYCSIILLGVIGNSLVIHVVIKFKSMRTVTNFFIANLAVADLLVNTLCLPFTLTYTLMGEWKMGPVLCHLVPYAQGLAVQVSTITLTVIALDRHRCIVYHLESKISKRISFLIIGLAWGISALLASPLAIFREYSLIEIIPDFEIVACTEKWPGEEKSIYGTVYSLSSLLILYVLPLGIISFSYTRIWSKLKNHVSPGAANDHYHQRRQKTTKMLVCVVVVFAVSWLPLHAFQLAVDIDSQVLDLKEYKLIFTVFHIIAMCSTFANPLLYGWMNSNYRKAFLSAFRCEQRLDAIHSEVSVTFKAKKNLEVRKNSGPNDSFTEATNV
# Sequence of UniProt P18089 (whole entry, looked up): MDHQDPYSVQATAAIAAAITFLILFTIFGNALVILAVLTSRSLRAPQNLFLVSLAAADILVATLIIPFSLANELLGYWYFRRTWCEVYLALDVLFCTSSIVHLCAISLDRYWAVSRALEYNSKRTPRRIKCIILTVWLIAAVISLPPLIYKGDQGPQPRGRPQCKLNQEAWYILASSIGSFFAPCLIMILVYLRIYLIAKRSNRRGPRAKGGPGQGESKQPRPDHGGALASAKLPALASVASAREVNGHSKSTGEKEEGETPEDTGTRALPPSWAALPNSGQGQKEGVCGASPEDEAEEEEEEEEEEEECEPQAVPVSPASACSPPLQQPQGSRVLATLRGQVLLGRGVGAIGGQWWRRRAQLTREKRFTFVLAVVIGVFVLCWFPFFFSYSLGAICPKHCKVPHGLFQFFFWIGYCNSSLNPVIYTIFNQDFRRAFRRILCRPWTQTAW
# Sequence of UniProt O95977 (whole entry, looked up): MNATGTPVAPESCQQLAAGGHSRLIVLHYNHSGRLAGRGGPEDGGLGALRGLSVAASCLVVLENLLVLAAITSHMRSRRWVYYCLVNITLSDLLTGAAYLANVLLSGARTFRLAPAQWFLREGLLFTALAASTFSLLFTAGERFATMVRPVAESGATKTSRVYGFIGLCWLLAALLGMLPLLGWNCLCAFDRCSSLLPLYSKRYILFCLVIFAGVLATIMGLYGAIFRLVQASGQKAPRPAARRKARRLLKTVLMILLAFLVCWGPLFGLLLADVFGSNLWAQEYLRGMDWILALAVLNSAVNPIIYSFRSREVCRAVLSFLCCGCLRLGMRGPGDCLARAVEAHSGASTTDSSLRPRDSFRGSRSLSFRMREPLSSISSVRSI
# Sequence of UniProt Q99527 (whole entry, looked up): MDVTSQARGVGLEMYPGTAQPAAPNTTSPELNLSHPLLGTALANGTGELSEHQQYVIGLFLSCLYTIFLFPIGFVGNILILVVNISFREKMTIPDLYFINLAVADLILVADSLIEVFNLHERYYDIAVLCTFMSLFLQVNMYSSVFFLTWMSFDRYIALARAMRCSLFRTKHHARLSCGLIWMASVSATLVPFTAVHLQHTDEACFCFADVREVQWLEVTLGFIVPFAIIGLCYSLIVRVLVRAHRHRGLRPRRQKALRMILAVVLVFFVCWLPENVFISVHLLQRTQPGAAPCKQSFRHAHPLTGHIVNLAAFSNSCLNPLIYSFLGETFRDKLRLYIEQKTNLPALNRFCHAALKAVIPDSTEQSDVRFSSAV
# Sequence of UniProt O60883 (whole entry, looked up): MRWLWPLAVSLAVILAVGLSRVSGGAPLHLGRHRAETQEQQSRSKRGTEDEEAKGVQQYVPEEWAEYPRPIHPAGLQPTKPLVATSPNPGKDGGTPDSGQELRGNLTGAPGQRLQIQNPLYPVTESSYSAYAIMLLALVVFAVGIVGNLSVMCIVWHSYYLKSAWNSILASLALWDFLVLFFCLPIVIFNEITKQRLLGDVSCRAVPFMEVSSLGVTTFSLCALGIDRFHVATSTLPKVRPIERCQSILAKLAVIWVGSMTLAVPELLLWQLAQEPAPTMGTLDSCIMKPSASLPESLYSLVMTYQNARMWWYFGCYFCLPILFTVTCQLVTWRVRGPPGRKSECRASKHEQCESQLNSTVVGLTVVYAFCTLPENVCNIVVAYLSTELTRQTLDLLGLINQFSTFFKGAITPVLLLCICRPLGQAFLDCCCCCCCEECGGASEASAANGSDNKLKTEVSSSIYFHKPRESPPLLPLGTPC
# Sequence of UniProt O95136 (whole entry, looked up): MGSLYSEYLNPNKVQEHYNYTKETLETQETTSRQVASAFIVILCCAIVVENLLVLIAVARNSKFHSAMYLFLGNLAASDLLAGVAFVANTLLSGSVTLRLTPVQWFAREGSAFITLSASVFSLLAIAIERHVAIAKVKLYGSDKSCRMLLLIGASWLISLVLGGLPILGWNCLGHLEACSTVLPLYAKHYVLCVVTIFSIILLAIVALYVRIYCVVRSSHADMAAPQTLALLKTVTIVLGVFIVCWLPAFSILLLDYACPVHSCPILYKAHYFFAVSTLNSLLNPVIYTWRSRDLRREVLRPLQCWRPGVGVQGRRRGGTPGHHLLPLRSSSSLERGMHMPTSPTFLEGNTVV
# Sequence of UniProt Q5T6X5 (whole entry, looked up): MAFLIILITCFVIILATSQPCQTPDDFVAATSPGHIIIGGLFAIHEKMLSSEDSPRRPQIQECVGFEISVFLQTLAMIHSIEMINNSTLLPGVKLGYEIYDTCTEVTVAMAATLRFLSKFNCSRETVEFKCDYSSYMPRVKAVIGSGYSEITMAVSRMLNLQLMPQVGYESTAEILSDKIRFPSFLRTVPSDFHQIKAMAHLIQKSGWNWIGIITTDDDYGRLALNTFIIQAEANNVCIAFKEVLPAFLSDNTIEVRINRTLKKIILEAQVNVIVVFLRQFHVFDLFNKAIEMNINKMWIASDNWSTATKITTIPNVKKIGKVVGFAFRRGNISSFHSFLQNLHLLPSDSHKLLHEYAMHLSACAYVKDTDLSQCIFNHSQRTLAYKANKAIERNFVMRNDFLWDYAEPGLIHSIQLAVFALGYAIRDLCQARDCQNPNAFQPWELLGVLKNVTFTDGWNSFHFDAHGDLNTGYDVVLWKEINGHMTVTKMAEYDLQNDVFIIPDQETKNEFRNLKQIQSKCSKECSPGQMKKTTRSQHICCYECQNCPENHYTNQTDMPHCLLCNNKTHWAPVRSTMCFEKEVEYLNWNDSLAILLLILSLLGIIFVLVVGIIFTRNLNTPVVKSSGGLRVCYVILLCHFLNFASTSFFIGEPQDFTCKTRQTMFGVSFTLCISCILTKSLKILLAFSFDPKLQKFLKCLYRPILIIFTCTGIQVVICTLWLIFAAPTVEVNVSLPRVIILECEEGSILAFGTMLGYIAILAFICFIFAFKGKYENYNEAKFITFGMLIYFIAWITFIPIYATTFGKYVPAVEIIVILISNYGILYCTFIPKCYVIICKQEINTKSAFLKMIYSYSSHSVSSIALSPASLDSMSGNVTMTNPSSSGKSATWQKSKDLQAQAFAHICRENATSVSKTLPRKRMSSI
# Sequence of UniProt P46091 (whole entry, looked up): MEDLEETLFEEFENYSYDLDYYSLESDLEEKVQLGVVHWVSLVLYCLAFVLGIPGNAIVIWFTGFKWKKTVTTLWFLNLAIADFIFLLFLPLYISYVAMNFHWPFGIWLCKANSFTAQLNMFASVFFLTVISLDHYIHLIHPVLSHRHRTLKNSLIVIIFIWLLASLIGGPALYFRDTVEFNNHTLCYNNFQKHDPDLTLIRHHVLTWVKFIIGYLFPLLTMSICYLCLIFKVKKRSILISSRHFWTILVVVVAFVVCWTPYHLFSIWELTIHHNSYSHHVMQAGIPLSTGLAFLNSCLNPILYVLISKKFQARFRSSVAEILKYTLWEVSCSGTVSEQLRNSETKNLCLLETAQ

# Block 1
# SMILES: NC(N)=NC(=O)c1nc(Cl)c(N2CCCCCC2)nc1N
# Read-out: β-arrestin recruitment
# Mode: agonist
# Method: PRESTO-Tango
# Tested at: 10 µM
# Baseline: untreated
target,fold over basal
"CMKLR2 (Homo sapiens, UniProt P46091)",0.63
"GPER1 (Homo sapiens, UniProt Q99527)",0.79
"GPR37L1 (Homo sapiens, UniProt O60883)",0.64
"ADRA2B (Homo sapiens, UniProt P18089)",1.23
"S1PR4 (Homo sapiens, UniProt O95977)",1.46
"S1PR2 (Homo sapiens, UniProt O95136)",0.96
"G-protein coupled receptor family C group 6 member A (GPRC6A, Homo sapiens, UniProt Q5T6X5)",1 fold
"NPY2R (Homo sapiens, UniProt P49146)",0.85

# Block 2
# Compound: CC(C)(C(=O)O)[C@H](NC(=O)Cc1cccc(I)c1)c1ccc2oc(=O)[nH]c2c1
# Method: Incucyte 3D growth
# Tested at: 30 µM
# Direction: higher = more growth
cell line,time,spheroid area
A375,12 h,4.55e+06 a.u. and 5.83e+06 a.u. and 8.39e+06 a.u. and 9.57e+06 a.u. and 8.83e+06 a.u. and 1.2e+07 a.u.
A375,150 h,8.62e+07 a.u. and 7.86e+07 a.u. and 8.98e+07 a.u. and 9.49e+07 a.u. and 8.84e+07 a.u. and 1.09e+08 a.u.
NCI-H358,264 h,1.25e+07 a.u. and 1.02e+07 a.u. and 9.66e+06 a.u.
NCI-H1437,102 h,2.34e+07 a.u. and 3.05e+07 a.u. and 2.5e+07 a.u. and 3.3e+07 a.u. and 2.65e+07 a.u. and 2.88e+07 a.u.
A375,252.52 h,1.96e+08 a.u. and 1.89e+08 a.u. and 1.67e+08 a.u. and 1.65e+08 a.u. and 1.72e+08 a.u. and 1.79e+08 a.u.
NCI-H1437,192 h,3.35e+07 a.u. and 5.37e+07 a.u. and 4.59e+07 a.u. and 7.89e+07 a.u. and 7.37e+07 a.u. and 3.91e+07 a.u.
KP-4,180 h,2.6e+07 a.u. and 3.67e+07 a.u. and 2.59e+07 a.u. and 1.74e+07 a.u. and 3.11e+07 a.u. and 2.64e+07 a.u.
A375,198.52 h,1.49e+08 a.u. and 1.48e+08 a.u. and 1.31e+08 a.u. and 1.36e+08 a.u. and 1.54e+08 a.u. and 1.58e+08 a.u.

# Block 3
# Medium: 1,9-decadiene/PBS
# pH: 7.4
Structure (SMILES),logD
CC(C)C[C@@H]1NC(=O)[C@H](CC(C)C)NC(=O)[C@H](CC(C)C)NC(=O)[C@H](C(C)C)NC(=O)[C@H](C)NC(=O)[C@@H](CC(C)C)NC(=O)[C@H](C)NC1=O,-0.0365
CC(C)C[C@@H]1NC(=O)[C@H](CC(C)C)NC(=O)[C@@H](C(C)C)NC(=O)[C@H](CC(C)C)NC(=O)[C@@H](Cc2cscn2)NC(=O)[C@H](CCC(=O)N2CCCC2)NC(=O)[C@H](C)NC1=O,-2.58
CC(C)C[C@@H]1NC(=O)[C@H](CC(C)C)NC(=O)[C@@H](C(C)C)NC(=O)[C@H](C(C)C)NC(=O)[C@H](C)NC(=O)[C@H](Cc2cscn2)NC(=O)[C@H](CCC(=O)N2CCCC2)NC1=O,-3.12
CC(C)C[C@@H]1NC(=O)[C@H](C)NC(=O)[C@@H](CC(C)C)NC(=O)[C@H](C)NC(=O)[C@H](C)NC(=O)[C@H](CC(C)C)NC(=O)[C@@H](CC(C)C)NC1=O,-1.63
CC(C)C[C@@H]1NC(=O)[C@H](CC(C)C)NC(=O)[C@H](CC(C)C)NC(=O)[C@H](CC(C)C)NC(=O)[C@@H](Cc2cscn2)NC(=O)[C@@H](CC(C)C)NC(=O)[C@H](C)NC1=O,0.385
CC(C)C[C@@H]1NC(=O)[C@H](C)NC(=O)[C@@H](CC(C)C)NC(=O)[C@@H](CC(C)C)NC(=O)[C@H](C)NC(=O)[C@H](CC(C)C)NC(=O)[C@@H](CC(C)C)NC1=O,0.546
CC(C)C[C@@H]1NC(=O)[C@H](CC(C)C)NC(=O)[C@H](CC(C)C)NC(=O)[C@H](C(C)C)NC(=O)[C@@H](CCC(=O)N2CCCC2)NC(=O)[C@H](C)NC(=O)[C@H](C)NC1=O,-2.03
CC(C)C[C@@H]1NC(=O)[C@H](Cc2cscn2)NC(=O)[C@H](Cc2cscn2)NC(=O)[C@H](CCC(=O)N2CCCC2)NC(=O)[C@@H](CCC(=O)N2CCCC2)NC(=O)[C@H](CC(C)C)NC(=O)[C@@H](CC(C)C)NC1=O,-2.72

# Further values, each from its own experiment
SMILES,target,read-out,mode,method,tested at,endpoint,value
Cc1ccc(NC(=O)c2ccc(CN3CCN(C)CC3)cc2)cc1Nc1nccc(-c2cccnc2)n1,"Dual specificity tyrosine-phosphorylation-regulated kinase 1B (DYRK1B, Homo sapiens, UniProt Q9Y463)",enzyme activity,inhibitor,radiometric,0.5 µM,remaining activity,97.9%

# A few entries again (block 2):
cell line,time,spheroid area
NCI-H358,264 h,1.25e+07 a.u. and 1.02e+07 a.u. and 9.66e+06 a.u.
NCI-H1437,102 h,2.34e+07 a.u. and 3.05e+07 a.u. and 2.5e+07 a.u. and 3.3e+07 a.u. and 2.65e+07 a.u. and 2.88e+07 a.u.
A375,252.52 h,1.96e+08 a.u. and 1.89e+08 a.u. and 1.67e+08 a.u. and 1.65e+08 a.u. and 1.72e+08 a.u. and 1.79e+08 a.u.
